# Assay results gathered from unrelated publications.
# Parts stem from different laboratories: compare values within a part only. Positions count from the first letter of the parent shown.

# Study 1
# Target: ABI1, truncated, D143A, DHFR fusion (Arabidopsis thaliana)
# Method: DHFR PCA, deep sequencing
# Matrix: yeast
# Setting: methotrexate growth selection, single substitutions
# Together with: (+)-ABA 58 µM
# Relative to: wild-type fitted maximum
# Reading: higher = stronger binding
# Parent: PYL1, truncated, DHFR fusion (Arabidopsis thaliana); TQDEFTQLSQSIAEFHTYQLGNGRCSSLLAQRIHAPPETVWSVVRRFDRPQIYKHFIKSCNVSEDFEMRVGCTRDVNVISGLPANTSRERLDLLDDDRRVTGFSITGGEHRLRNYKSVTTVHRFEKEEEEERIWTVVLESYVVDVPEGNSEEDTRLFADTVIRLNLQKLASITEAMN; partner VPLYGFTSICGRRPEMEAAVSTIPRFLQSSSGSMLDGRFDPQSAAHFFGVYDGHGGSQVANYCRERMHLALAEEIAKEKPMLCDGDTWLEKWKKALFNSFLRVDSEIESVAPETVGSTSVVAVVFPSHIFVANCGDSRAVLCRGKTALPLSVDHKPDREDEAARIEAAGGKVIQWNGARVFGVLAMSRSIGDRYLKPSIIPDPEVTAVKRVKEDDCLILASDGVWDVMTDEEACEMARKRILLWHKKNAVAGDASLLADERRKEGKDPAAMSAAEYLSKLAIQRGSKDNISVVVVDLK
Substitution,relative binding score
L112S,-1.68%
L166W,5.08%
D96V,20%
F103H,11.1%
F56V,-0.548%
Y141E,0.0636%
A30T,91.8%

# Study 2
# Target: Sal-like protein 4, full length isoform B (SALL4, Homo sapiens, UniProt Q9UJQ4-2, residues 1-616)
# Method: universal PBM
# Molecule type: double-stranded DNA, one strand shown
# Matrix: in vitro
# Concentration: not given
# Setting: 8-mer, flanks averaged, mean of replicates
# Reading: higher = stronger binding
Strand,E-score
AGCCTGTC,-0.255
AGAACTTC,-0.168
AAATTTAT,0.402
GGCTAGGA,-0.0463
CACTATGC,0.122
ACGGGCAG,-0.0736
AGCACATG,-0.057

# Study 3
# Target: PABPC1L2, full length, GST fusion (mouse, UniProt A0ABA7IW68)
# Method: RNAcompete
# Molecule type: RNA
# Matrix: in vitro
# Concentration: 20 nM
# Setting: 7-mer, probes averaged, single round
# Relative to: mean of 7-mers
# Reading: higher = stronger binding
# Residues (chain): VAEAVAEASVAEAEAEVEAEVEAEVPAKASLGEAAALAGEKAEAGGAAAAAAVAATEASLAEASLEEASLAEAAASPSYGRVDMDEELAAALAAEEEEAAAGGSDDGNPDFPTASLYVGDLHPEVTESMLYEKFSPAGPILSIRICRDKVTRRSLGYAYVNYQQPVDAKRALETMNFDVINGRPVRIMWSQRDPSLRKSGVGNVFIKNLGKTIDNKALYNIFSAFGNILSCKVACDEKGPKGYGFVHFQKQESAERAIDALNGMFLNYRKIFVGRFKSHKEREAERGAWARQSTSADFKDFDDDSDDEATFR
Strand,7-mer Z-score
CACAGUG,-0.213
UCGAUUU,-0.322
ACCUGCU,-0.0591
CUGGAGA,0.0189
AUCAUGC,-0.126
ACCAAUG,-0.0246
UUAAACC,0.0805
CAAGCGC,-0.153

# Further values, each from its own experiment
Molecule,target,assay,system,conditions,scale,measurement,result
"PhoQ, residues 284 288 289 292 302 303 WVSSAF","PhoP, residues 12 14 15 18 19 MHTVL (Escherichia coli, UniProt P23836)","Sort-seq, measured: YFP reporter",E. coli,"PhoQ-PhoP variant library, together with: 10 µM Mg2+","relative to: high Mg2+ state, higher = stronger signaling",fold induction,4.86

# Excerpt of the above (study 2):
Strand,E-score
AGCCTGTC,-0.255
AGAACTTC,-0.168
